{"data": "Measured values pooled from the literature", "note": "Lines come from different studies, so protocols differ. Several values in a cell are separate wells, animals, samples, runs or records. ± gives the spread as reported."}
{"SMILES": "Nc1ncnc2c1ncn2[C@@H]1O[C@H](CO)[C@@H](O)[C@H]1O", "cell line": "activated human T cells", "conditions": "4 h, unit not given", "scale": "relative to: vehicle", "quantity": "maximal OCR", "result": "51.5 and 54.6 and 66.1 and 42.4 and 49 and 40.6"}
{"SMILES": "Cc1cccc(-c2[nH]c(CNc3ccccc3F)nc2-c2ccc3ncnn3c2)n1", "cell line": "pomalidomide-resistant MM1.S cells", "assay": "XTT", "conditions": "3 µM", "scale": "higher = more viable cells", "quantity": "XTT absorbance", "result": "0.7 E-1 and 1.4 E-1 and 1.1 E-1"}
{"SMILES": "Cc1cc(NS(=O)(=O)c2ccc(NC(=O)/C(C#N)=C/c3ccc(N4CCCCC4)cc3)cc2)no1", "cell line": "HCT-116", "assay": "flow cytometry", "conditions": "IC50, 48 h", "quantity": "cells in G0/G1 phase", "result": "71.7%"}
{"SMILES": "Fc1ccc(CNc2ccc3c[nH]nc3c2)cc1", "cell line": "sample A patient iPSC-derived NPCs", "assay": "MTS", "conditions": "10 µM, 24 h", "scale": "relative to: vehicle", "quantity": "viability", "result": "109 ± 7.24%"}
{"SMILES": "COc1ccc(-n2nc(C(C)=O)s/c2=N\\N=C(/C)c2ccc(NC(=O)c3ccc(Cl)cc3)cc2)cc1", "cell line": "HepG2", "conditions": "2.5 µM", "quantity": "toxicity", "result": "94.1%"}
{"SMILES": "CC(/C=C/C(=O)NO)=C\\[C@@H](C)C(=O)c1ccc(N(C)C)cc1", "cell line": "OCI-Ly1", "conditions": "0.5 µM, 120 h", "quantity": "viability", "result": "2.65%"}
{"SMILES": "CCCCc1oc2ccc(NS(C)(=O)=O)cc2c1C(=O)c1ccc(OCCCN(CCCC)CCCC)cc1", "cell line": "human embryonic stem cell aggregates", "assay": "mRNA level, microarray, measured: FGD4", "conditions": "0.5 µM, 120 h", "scale": "relative to: untreated, up-regulated", "quantity": "fold change", "result": "1.8 fold"}
{"SMILES": "CCCC(CCC)C(=O)O", "cell line": "OCI-Ly1", "conditions": "1 µM, 120 h", "quantity": "viability", "result": "147%"}
{"SMILES": "Cn1cc(-c2ccc(-c3cncc(Cl)c3N3CCC4(CCNC4=O)CC3)cc2)cn1", "cell line": "COLO 205", "assay": "microarray, measured: C1orf61", "conditions": "concentration not given, 2 h, gene set CROC-4", "scale": "relative to: untreated cells", "quantity": "fold change in expression", "result": -3}
{"SMILES": "COc1ccccc1S(=O)(=O)Nc1ccc2c(c1)CN(C)C(=O)N2", "cell line": "OCI-Ly1", "conditions": "1 µM, 120 h", "quantity": "viability", "result": "58.1%"}
{"SMILES": "Cc1ncsc1-c1ccc([C@H](C)NC(=O)[C@H]2C[C@H](O)CN2C(=O)[C@@H](NC(=O)CCCCCCCCCNC(=O)c2ccc3c(c2)[C@H](NC(=O)c2cc(-c4ccc(C(=O)N(C)C)c(O)c4)on2)CC3)C(C)(C)C)cc1", "cell line": "MV4-11", "assay": "TMT proteomics, measured: RNPC3 protein", "conditions": "concentration not given, 6 h", "scale": "relative to: DMSO", "quantity": "log2 fold change", "result": -0.425}
{"SMILES": "CC(C)(O)c1coc(S(=O)(=O)NC(=O)Nc2c3c(cc4c2CCC4)CCC3)c1", "cell line": "THP-1 GSDMD knockout, LPS-primed", "assay": "inhibitor", "conditions": "25 µM, 2 h, with: nigericin 6.25 µM", "quantity": "LDH release", "result": "19.9% and 25.2% and 19%"}
{"SMILES": "CCC(=O)N1CCC(COCC(=O)N2CCN(c3nc(-c4cnc(N)nc4C(F)F)nc(N4CCOC[C@@H]4C)n3)CC2)CC1", "cell line": "HCC1954", "assay": "resazurin growth rate inhibition", "conditions": "72 h", "quantity": "GR50", "result": "92.3 nM"}
{"SMILES": "Cn1c(Nc2nc3ccc(C(F)(F)F)cc3s2)nc2cc(C(=O)NCCOCCO)ccc21", "cell line": "SH-SY5Y", "assay": "RNA-seq, measured: HSPB7 mRNA", "conditions": "5 µM, 5 h", "scale": "relative to: untreated cells", "quantity": "fold change", "result": 1.62}
{"SMILES": "CCNC(=O)c1noc(-c2cc(C(C)C)c(O)cc2O)c1-c1ccc(CN2CCOCC2)cc1", "cell line": "iPSC-derived cardiomyocytes", "assay": "concentration-response fit", "scale": "relative to: vehicle", "quantity": "fitted bottom MyBP-C/MYH ratio", "result": "43.7%"}
{"SMILES": "CCn1cc(-c2cc(Cn3ccoc3=N)cc3c2CCN([C@@H](C)c2cc(OC)ccn2)C3=O)c(C(F)(F)F)n1", "cell line": "SCC-15", "assay": "cell growth, inhibitor", "conditions": "120 h", "quantity": "EC50", "result": "0.33 µM"}
{"SMILES": "C#CCCC(=O)SCCNC(=O)CCNC(=O)[C@H](O)C(C)(C)COP(=O)(O)OP(=O)(O)OC[C@H]1O[C@@H](n2cnc3c(N)ncnc32)[C@H](O)[C@@H]1OP(=O)(O)O", "cell line": "OCI-Ly1", "conditions": "0.1 µM, 120 h", "quantity": "viability", "result": "111%"}
{"SMILES": "CCCCCCCCCc1ccc(OCCOCCOCCOCCOCCOCCOCCOCCOCCO)cc1", "cell line": "iPSC-derived cardiomyocytes", "assay": "concentration-response fit", "scale": "relative to: vehicle", "quantity": "fitted bottom MyBP-C/MYH ratio", "result": "0%"}
{"SMILES": "O=C(CCCCCN1C(=O)c2cccc3cccc(c23)C1=O)NO", "cell line": "OCI-Ly1", "conditions": "0.5 µM, 120 h", "quantity": "viability", "result": "70.5%"}
{"SMILES": "O=C(/C=C/C=C/C=C/C1CCCCC1)NC1=C[C@@](O)(/C=C/C=C/C=C/C(=O)NC2=C(O)CCC2=O)[C@@H]2O[C@@H]2C1=O", "cell line": "NCI-H3255", "assay": "cell growth, CellTiter-Glo", "conditions": "78 h", "quantity": "GI50", "result": "11.4 µM"}
{"SMILES": "CCn1cc(-c2cc(Cn3ccnc3)cc3c2CCN([C@H](c2cc(OC)ccn2)C2CC2)C3=O)c(C(F)(F)F)n1", "cell line": "SW1417", "assay": "cell growth, inhibitor", "conditions": "120 h", "quantity": "EC50", "result": "17.8 µM"}
{"SMILES": "COc1cc2c(NC3CCN(C)CC3)nc(N3CCCN(C)CC3)nc2cc1OCCCN(C)C", "cell line": "OCI-Ly1", "conditions": "1 µM, 120 h", "quantity": "viability", "result": "153%"}
